Experimental data pooled from the literature.
Numbered parts are unrelated; each lists some results of a single study. Positions count from the first letter of the parent shown.

Sample 1 — technique: protein binding microarray; molecule type: double-stranded DNA, one strand shown; medium: in vitro; tested at: not given; relative to: not given; reading: higher = stronger binding
Target: Histone acetyltransferase KAT6A, winged helix 1, GST fusion (KAT6A, Homo sapiens, UniProt Q92794, residues 1-85)
Notes: 8-mer, flanks averaged, mean of 2 arrays, mostly near background
Construct (chain): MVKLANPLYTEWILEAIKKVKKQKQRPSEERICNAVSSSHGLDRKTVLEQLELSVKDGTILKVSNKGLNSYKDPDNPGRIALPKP
| Strand | E-score |
| --- | --- |
| CGATCAAA | -0.221 |
| CCACTCAG | -0.183 |
| GCGACAGC | 0.208 |
| AGGCTGAC | -0.117 |
| GGGGAAGA | -0.078 |
| CTCCTCAG | -0.132 |
| GACACATA | -0.272 |
| CCGTAGTA | 0.167 |
| TATTATAA | -0.0582 |
| CCGGTAAA | 0.33 |
| ATATCGAT | -0.17 |
| ATTGTAGA | -0.176 |
| GTACTTCA | 0.041 |
| AGTACTAC | -0.135 |
| ATCGAATC | 0.0221 |
| CCGCCCGA | 0.331 |
| CATACACG | -0.147 |
| TGGAAGAA | -0.188 |
| AAGAACAC | -0.0591 |
| CCTGAGCC | -0.0728 |
| CAACAAGG | -0.15 |
| CTGTACTA | -0.0518 |
| AACCTGGC | -0.136 |
| ATAACCTA | -0.126 |
| ATGCCGGA | 0.181 |

Sample 2 — technique: DHFR PCA, deep sequencing; medium: yeast; added: (+)-ABA 4.8 µM; relative to: wild-type fitted maximum; reading: higher = stronger binding
Target: ABI1, truncated, D143A, DHFR fusion (Arabidopsis thaliana)
Notes: methotrexate growth selection, single substitutions
Starting sequence: PYL1, truncated, DHFR fusion (Arabidopsis thaliana); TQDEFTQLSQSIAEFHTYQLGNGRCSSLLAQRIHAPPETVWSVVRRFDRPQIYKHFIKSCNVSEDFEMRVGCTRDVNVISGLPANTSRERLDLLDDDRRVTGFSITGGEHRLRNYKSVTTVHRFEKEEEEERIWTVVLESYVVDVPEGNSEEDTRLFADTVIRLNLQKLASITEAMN; partner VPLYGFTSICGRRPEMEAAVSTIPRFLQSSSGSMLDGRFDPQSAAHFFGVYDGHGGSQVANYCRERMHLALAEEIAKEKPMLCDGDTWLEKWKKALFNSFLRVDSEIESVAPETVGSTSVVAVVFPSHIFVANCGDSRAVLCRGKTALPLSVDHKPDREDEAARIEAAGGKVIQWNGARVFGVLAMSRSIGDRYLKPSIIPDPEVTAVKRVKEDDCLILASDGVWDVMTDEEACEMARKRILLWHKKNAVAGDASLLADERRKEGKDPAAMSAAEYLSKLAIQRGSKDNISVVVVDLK
| Change | relative binding score [%] |
| --- | --- |
| Q19C | 57.9 |
| E127M | 75.7 |
| S80L | 18.1 |
| T6R | 79.8 |
| T101N | 4.45 |
| W134C | 85.4 |
| H110M | 9.78 |
| A35Q | 6.79 |
| D95I | 4.76 |
| E67G | 50.5 |
| Q31L | 1.66 |
| M68L | 88.1 |
| W41D | -15.4 |
| R123W | 23 |
| D92H | -7.79 |
| V161N | 0.114 |
| E131A | 79.5 |
| C60R | 19.5 |
| T1F | 71.4 |
| S80R | -2.3 |
| I12R | 11.7 |

Sample 3 — technique: competition protein-binding microarray; molecule type: double-stranded DNA, one strand shown; medium: in vitro; tested at: 2 µM; added: Cbf1 competitor, 0.05 µM; reading: higher = stronger binding
Target: Phosphate system positive regulatory protein PHO4, full length, GST-tagged (PHO4, Saccharomyces cerevisiae, UniProt P07270, residues 1-312)
Notes: whole 60-bp probe, lowest competitor level
Construct (chain): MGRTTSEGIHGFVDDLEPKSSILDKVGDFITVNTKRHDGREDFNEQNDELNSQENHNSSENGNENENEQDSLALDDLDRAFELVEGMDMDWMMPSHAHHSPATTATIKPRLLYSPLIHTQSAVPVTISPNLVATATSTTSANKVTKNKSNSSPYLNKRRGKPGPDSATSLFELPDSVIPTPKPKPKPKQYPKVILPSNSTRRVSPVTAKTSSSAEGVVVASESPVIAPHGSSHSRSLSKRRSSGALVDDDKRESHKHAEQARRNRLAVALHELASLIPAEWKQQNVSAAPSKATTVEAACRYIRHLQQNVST
| Strand | fluorescence intensity |
| --- | --- |
| CTAACGAAGGTTTGTCACCAAACTTACAAGCCAAGTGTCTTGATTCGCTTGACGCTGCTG | 3340 a.u. |
| CGTCCTAGTGATTGTCACGTTACTTCCATGAGGAAGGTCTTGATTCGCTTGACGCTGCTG | 7310 a.u. |
| ATTAAGTCTCTTCATCCCGTGTACTATTACCCGACAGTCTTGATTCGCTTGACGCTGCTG | 6130 a.u. |
| GAGGATGCTCTCGGCAGCGTGACTCGAATTGAGCCCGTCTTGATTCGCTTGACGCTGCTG | 5620 a.u. |
| GTTCGGTCCAGAGACTTCGTGATGGGCCTGAGGTGGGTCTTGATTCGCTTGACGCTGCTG | 4630 a.u. |
| CGTCCTAGTGATTGTGTAGTGGGTGCCATGAGGAAGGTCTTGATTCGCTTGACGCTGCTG | 7470 a.u. |
| AACGACACCGGCACCTTCGTGACGGCCAACTAATGGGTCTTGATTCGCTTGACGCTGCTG | 5280 a.u. |
| TCCAGACGCTGTGGACACGTTAGACATCACCCTTGTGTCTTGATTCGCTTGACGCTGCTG | 6570 a.u. |
| CGATCGTAGCTTGGTGTCGTGATGGGGTTATTTCGGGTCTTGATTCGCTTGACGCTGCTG | 4850 a.u. |
| CTTCGGTAGCCGAGCCTCGTCTGTGTGTGTGGGAATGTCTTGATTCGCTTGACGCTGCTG | 5040 a.u. |
| TGCGCAACAACTTGGACTGTGGGTGTATGTCTAGAAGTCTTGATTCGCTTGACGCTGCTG | 5320 a.u. |
| CTTTCCCGATCTTGGCCGGTGGGTGTAGCACATTTGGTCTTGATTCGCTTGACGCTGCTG | 4430 a.u. |
| GCGCCTTTACGCCTTCACGTGGAACAAGACACTTTAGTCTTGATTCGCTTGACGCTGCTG | 12200 a.u. |
| CGGGAAATATTTCAGCATGTGATGTGGCTGAAAATTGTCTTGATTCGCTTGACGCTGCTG | 9370 a.u. |
| TGCGGGCGCGCTTTTCACGTTTTGATTAGCAACAGGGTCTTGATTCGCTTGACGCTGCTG | 7710 a.u. |
| GGTTAAACAGAAAAAGACGTGACGGTGTAACCGAGAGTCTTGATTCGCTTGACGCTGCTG | 4250 a.u. |
| CCGTCTACAACTCGGCACGCAAGTAGTCCGCCTAGCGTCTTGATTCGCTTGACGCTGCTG | 6120 a.u. |
| TGCGCAACAACTTGTCACTTAACTTTATGTCTAGAAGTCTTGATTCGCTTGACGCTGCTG | 2720 a.u. |
| AATATAACTCAACAAAACGTGACGGAAAATCAAATGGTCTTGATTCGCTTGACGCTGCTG | 12700 a.u. |
| CGTCCTAGTGATTGTCATGTGGGTGCCATGAGGAAGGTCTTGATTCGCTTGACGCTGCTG | 9870 a.u. |
| TGTGGGGACGTCGTTCACGTGCAAAAGTCGCCAAATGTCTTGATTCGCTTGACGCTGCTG | 14500 a.u. |
| ATCTAGAATATCCTACACGTCATCAGCGATTATCCGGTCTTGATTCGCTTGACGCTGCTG | 4950 a.u. |
| CAATTACTGAAGCTTCACGTGCCAGAACGTAAAAATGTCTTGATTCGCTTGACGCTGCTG | 15500 a.u. |
| TGCGCAACAACTTTTCACGTGAAATTATGTCTAGAAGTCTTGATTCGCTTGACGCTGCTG | 8130 a.u. |
| GTCTGAGTAAGTCCGCACGTCCAACGTCTTGAGTCGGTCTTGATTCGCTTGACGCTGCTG | 6480 a.u. |

Sample 4 — technique: RNA Bind-n-Seq; molecule type: RNA; medium: in vitro; tested at: not given; relative to: input RNA pool; reading: higher = stronger binding
Target: RING finger protein unkempt homolog, zinc fingers 1-6, GST-SBP tag (UNK, Homo sapiens, UniProt Q9C0B0, residues 30-357)
Notes: RNA with constant flanks, human and mouse sites, ends assumed
Construct (chain): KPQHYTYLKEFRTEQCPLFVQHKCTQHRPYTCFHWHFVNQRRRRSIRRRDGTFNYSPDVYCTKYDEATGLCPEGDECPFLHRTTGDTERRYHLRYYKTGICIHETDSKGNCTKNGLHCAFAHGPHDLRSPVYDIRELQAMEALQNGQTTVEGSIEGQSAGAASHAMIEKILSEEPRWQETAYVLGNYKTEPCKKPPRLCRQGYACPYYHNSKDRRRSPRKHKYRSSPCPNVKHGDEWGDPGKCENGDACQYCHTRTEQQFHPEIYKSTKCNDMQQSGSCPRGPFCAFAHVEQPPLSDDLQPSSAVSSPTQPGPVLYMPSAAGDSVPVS
| Strand | bound/input enrichment [ratio] |
| --- | --- |
| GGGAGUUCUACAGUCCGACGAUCGACACGGUGGCCUGGCUCAAAAUGGACAAGAAGGUGUUGGAUCAUGAUGUUUCGAAGGAAGAACCAGUUACCUUUCACUUCCUGGCCAAAUUUUAUCCUGAAAAUGCUGAGGAGGAGCUACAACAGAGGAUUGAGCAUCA | 0.213 |
| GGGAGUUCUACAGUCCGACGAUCCCAUUUAAAGACAGAAUCAGCUGGGCUGGAGACCUUGACAAGAAAGAUGCAUCAAUCAACAUAGAAAAUAUGCAGUUUAUACACAAUGGCACCUAUAUCUGUGAUGUCAAAAACCCUCCUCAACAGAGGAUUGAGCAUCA | 0.541 |
| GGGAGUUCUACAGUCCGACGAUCUAGCUCAGAGGCGAUGUGGACCCUGUUCCCCAGGGUCAGGUUACCACAGACCUGUUUGUUUGUUAUGCAGUUCAUGGAGUCUCCCUGGAUUGUCUGGUUUCCCUUUCAGGGCUCCCUCCCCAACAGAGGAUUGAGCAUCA | 0.195 |
| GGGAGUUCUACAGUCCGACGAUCUCAUAUCAAACAUUAAAUUUAAAAGUGACCACUCUUAAUUAAAAUUAACUUUUAAAUGUUUAUAGGAGUACGUGCUGUGAAGUGAUCUGAAAUUUGUAAUAUUUUUGUCAUGAACCGUACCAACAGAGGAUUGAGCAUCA | 0.35 |
| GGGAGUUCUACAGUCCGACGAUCUUUGAAGAAGGUGAAGAAACAAUUACAGCCUUUGUAGAACCUUUUGUAAUUUUACUCAUAUUAGUAGCCAAUGCAAUUGUGGGUGUAUGGCAGGAAAGAAAUGCUGAAAAUGCCAUCGAACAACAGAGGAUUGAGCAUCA | 1.49 |
| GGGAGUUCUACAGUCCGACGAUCUCUGCCCCAGAACAAUUCUGCAGAGUGGUGAAGUUCACUUCCCCAACUCUUCUCCAAGUCUAGCUUUCCUUUCCUUCUGGCUCCAAGGUGCUCUGUGUCCGUCUGUGUAUGUGUGUGUCUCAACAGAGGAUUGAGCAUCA | 1.19 |
| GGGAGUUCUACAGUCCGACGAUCACAGUUAGAAAGCAAAGUGUUAAAUGGAGAAGAUACUUGUUUUUAUUAAACAUUUUGAGAUUUAGAUAAACUACAUUUUAACUGAAUGUCUAAAGUGAUUAUCUUUUUUCCCCCCAAGUUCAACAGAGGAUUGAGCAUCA | 0.628 |
| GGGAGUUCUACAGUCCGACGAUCCUUCAGCUGGUGCUUGUCUGGCUGGGUGAAGUGCUAGGUGUCAUUGGGGACUGUCCAGAGCUAGUUCAGCGCUCCUUCCUGGUGGCUAGUGUUCUGCCUGGCCCCGAUGGCAACAUUAACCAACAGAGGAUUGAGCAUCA | 0.181 |
| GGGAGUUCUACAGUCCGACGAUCCAGCAGACCUGCCCACUGUGCAAAUUCAACGUCCUGGGGAACCGCUACUCCGAUGAUUAGCUGCCCAGCUGGACUCUGCACAUGGGGAUGGACCCUUCCUGCCUGCACCCCGGUCCUCAGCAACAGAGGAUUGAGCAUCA | 0.0805 |
| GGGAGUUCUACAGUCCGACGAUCAUUGUGGAUAAAGUAUCCAGUGUAGCCAGCUCAGCGCUGGUCUCUUCCUUACACAUGAUGAAGAUAAGCUAUGAUGUGGUUAAACGAUGGAUAAAUGAAGCCCAAGAAGCUGCAUCAAGUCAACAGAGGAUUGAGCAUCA | 0.127 |
| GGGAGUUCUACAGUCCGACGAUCGCACUUUUCCCCAAUUCAUGUUUGGUGGGGCCAUCCACACCCUCUCCUUGUCACAGAAUCUCCAUUUCUGCUCAGAUUCCCCCCAUCUCCAUUGCAUUCAUGUACUACCCUCAGUCUACACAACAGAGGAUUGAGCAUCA | 0.788 |
